Published values from different studies.
Parts stem from different laboratories: compare values within a part only.
UniProt Q03141, sequence (whole entry, looked up): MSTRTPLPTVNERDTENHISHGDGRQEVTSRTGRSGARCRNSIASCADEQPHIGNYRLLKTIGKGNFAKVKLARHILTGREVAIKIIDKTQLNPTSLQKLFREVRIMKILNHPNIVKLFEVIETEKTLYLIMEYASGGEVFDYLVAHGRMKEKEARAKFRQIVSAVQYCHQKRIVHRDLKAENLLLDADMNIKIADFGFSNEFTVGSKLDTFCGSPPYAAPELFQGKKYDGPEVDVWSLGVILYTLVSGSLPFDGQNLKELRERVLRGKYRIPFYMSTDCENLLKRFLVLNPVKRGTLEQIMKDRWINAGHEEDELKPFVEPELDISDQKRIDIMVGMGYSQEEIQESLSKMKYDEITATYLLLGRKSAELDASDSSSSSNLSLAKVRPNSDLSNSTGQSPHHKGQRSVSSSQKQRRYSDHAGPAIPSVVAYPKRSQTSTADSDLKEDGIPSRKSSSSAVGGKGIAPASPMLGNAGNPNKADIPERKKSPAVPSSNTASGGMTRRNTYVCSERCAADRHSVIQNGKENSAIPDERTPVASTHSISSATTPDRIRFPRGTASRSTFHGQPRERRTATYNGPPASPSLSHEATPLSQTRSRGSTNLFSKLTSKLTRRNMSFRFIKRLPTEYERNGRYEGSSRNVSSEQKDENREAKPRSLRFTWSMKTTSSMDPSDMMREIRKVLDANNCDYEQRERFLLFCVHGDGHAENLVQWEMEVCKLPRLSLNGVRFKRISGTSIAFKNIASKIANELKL

Sample 1 — action: agonist
Target: Beta-1 adrenergic receptor (ADRB1, Homo sapiens, UniProt P08588)
UniProt P08588, sequence (whole entry, looked up): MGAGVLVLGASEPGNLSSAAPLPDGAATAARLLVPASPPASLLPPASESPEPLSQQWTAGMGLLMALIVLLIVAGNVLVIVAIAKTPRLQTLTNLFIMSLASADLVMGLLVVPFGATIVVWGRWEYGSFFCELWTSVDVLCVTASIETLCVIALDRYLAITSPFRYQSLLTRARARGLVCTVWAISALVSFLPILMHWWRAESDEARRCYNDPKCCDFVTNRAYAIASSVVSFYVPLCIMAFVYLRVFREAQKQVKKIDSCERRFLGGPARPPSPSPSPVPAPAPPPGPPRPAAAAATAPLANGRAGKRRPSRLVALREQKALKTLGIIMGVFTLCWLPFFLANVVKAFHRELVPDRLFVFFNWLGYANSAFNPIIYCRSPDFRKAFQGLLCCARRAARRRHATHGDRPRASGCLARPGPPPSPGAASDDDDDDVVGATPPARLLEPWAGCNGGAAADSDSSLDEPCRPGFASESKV
Structure (SMILES) | EC50
Cc1cc(C)n(-c2ccc(=O)n(C3CCN(c4ccc5ccccc5n4)CC3)n2)n1 | ≥ 100 µM
OCCc1ccc(O)cc1 | ≥ 100 µM
Cc1cccc2nc(C(=O)N3CCN(c4cccc(Cl)c4)CC3)cn12 | ≥ 100 µM
CC(C)c1ccc(NC(=O)c2cc3c(nc2O)CC(C)(C)CC3=O)cc1 | ≥ 100 µM
Cc1nc(Nc2cnn(C3CCNCC3)c2)nc2c1N(C)C(=O)c1cc3ccccc3cc1N2C | ≥ 100 µM
O=C(c1nc(-c2ccccc2)cc2[nH]ccc12)N1CCOCC1 | ≥ 100 µM
Cn1c(COc2cccc(C(F)(F)F)c2Cl)nnc1[C@H]1C[C@H](N)C1 | ≥ 100 µM

Sample 2 — observed: enzyme activity; action: inhibitor; tested at: 10 µM
Target: Calcium/calmodulin-dependent protein kinase type II subunit alpha (CAMK2A, Homo sapiens, UniProt Q9UQM7)
UniProt Q9UQM7, sequence (whole entry, looked up): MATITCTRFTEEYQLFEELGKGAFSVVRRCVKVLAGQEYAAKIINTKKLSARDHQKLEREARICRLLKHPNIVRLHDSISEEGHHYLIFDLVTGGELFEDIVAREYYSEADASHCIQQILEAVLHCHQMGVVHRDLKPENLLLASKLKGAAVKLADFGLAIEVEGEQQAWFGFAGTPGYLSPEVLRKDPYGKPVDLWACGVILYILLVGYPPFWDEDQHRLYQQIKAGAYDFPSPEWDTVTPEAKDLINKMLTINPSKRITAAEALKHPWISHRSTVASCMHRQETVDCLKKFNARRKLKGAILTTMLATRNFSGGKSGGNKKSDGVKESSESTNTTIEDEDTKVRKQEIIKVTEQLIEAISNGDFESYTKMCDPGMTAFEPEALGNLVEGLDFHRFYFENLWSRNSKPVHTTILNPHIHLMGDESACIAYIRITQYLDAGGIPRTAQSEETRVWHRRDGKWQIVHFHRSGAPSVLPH
SMILES | inhibition
C[C@@H]1O[C@@H](OC[C@H]2O[C@@H](Oc3c(-c4ccc(O)cc4)oc4cc(O[C@@H]5O[C@@H](C)[C@H](O)[C@@H](O)[C@H]5O)cc(O)c4c3=O)[C@H](O)[C@@H](O)[C@H]2O)[C@H](O)[C@H](O)[C@H]1O | -10%
CO[C@H]1C[C@H](O[C@H]2[C@H](C)O[C@@H](O[C@@H]3/C(C)=C/C[C@@H]4C[C@@H](C[C@]5(C=C[C@H](C)[C@@H](C6CCCCC6)O5)O4)OC(=O)[C@@H]4C=C(C)[C@@H](O)[C@H]5OC/C(=C\C=C\[C@@H]3C)[C@]54O)C[C@@H]2OC)O[C@@H](C)[C@@H]1O | -8%
Cc1ncc([N+](=O)[O-])n1CC(O)CCl (stereo not drawn) | 10%
COc1ccc2c(C(=S)N(C)CC(=O)O)cccc2c1C(F)(F)F | 0%

Sample 3 — observed: ligand displacement; method: radioligand; tested at: 10 µM
Target: 5-hydroxytryptamine receptor 1A (HTR1A, Homo sapiens, UniProt P08908)
UniProt P08908, sequence (whole entry, looked up): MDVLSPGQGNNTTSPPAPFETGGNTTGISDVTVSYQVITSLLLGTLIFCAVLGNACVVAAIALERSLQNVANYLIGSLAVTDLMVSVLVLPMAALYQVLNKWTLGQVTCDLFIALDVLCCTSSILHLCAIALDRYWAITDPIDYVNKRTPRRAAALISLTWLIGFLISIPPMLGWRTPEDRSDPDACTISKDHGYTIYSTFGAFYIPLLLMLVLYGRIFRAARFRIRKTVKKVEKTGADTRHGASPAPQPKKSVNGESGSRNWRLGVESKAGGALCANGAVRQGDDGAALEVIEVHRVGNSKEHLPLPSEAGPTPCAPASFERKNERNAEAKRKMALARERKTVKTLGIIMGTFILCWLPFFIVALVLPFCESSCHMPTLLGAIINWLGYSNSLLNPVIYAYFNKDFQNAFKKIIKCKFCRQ
SMILES | inhibition [%]
COc1ccc2cc(OCC3(C(=O)O)CN(C(=O)c4ccc(F)cc4)C3)ccc2c1 | -22.7
COc1cccc(CNC(=O)c2nc3scc(COCc4ccc(C(=O)O)cc4)c3c(=O)[nH]2)c1 | 7.7
O=C(NS(=O)(=O)c1ccc(NCC2CCOCC2)c([N+](=O)[O-])c1)c1ccc(N2CCN(Cc3ccc(C(F)(F)F)cc3-c3ccc(Cl)cc3)CC2)cc1Oc1cnc2[nH]ccc2c1 | -13.4
CC(=O)C1=C(C)N(c2cccc(C(F)(F)F)c2)C(=O)N[C@@H]1c1ccc(C#N)nc1 | 50
Cc1nccc(COC(=O)N2C[C@@H]3[C@@H](CNC(=O)c4ccc5[nH]nnc5c4)[C@@H]3C2)n1 | -7.66
O=C(NC[C@@H]1[C@H]2CN(C(=O)OCc3cc(C(F)(F)F)cc(C(F)(F)F)c3)C[C@@H]12)c1ccc2[nH]nnc2c1 | 0.91
O=C(Nc1cccnn1)N1CC(CC=Cc2cncc(Oc3ccc(C(F)(F)F)cn3)n2)C1 | -25
CNCc1ccccc1-c1csc([C@H](C)Nc2nc(C)nc3cc(OC)c(OC)cc23)c1 | 93.8
O=C1NC(c2ccccn2)Sc2ccccc21 (stereo not drawn) | 24.7
CCS(=O)(=O)c1cc2cc(C[C@](O)(CC(C)(C)c3ccc(F)cc3C(N)=O)C(F)(F)F)[nH]c2cn1 | -14.2
O=C(NCc1ncc(C(F)(F)F)cc1Cl)c1ccc2c(c1)C1(CCS(=O)(=O)CC1)[C@H](C1CC1)N2S(=O)(=O)c1ccc(F)cc1 | -17.3
Cc1cc(NC(=O)c2cccc(S(F)(F)(F)(F)F)c2)cc(-n2ccn3nc(-c4cccnc4)cc23)c1 | 69.8
O=C(O)[C@H]1[C@H](Cn2nnc3ccccc3c2=O)CC[C@@H]1C(=O)c1ccc(OCCC2CCOCC2)cc1 | -0.18
O=c1nc(-c2ccccn2)sc2ccccc12 | 9.69
NS(=O)(=O)c1cc(NC(=O)C2(c3ccccc3Cl)CC2)ccc1Oc1cccc(Cl)c1 | 4.89
CCOC(=O)c1cc2cc(-c3cc(C(=O)NCc4ccc(C(=O)O)cc4)nn3C)ccc2[nH]1 | -13.5
CCCCN(CCCC)C(=O)CN1C[C@H](c2cc(OC)c3c(c2)OCO3)[C@@H](C(=O)O)[C@@H]1CC(C)(C)CCC | 20.6
O=C(N[C@H]1CCCCC/C=C\C2C[C@@]2(C(=O)O)NC(=O)[C@@H]2C[C@@H](Oc3ccncc3)CN2C1=O)OC1CCCC1 (stereo partly drawn) | -13.8
CC(=O)c1c(NS(C)(=O)=O)c2cc(-c3ccc(Cl)cc3)c(-c3ccc(Cl)cc3Cl)nc2n(C)c1=O | 28.7
CN([C@@H]1CCc2c(CC(=O)O)c3cc(S(C)(=O)=O)ccc3n2C1)S(=O)(=O)c1ccc(F)cc1 | -10.6

Sample 4
SMILES: COc1cc(C(=O)N2CCC(N3CCN(C)CC3)CC2)ccc1Nc1ncc2c(n1)N(C)c1ccccc1C(=O)N2C
target | test | test system | setting | inhibition [%]
NEK9 (mouse) | probe labelling, KiNativ ATP probe | mouse brain lysate | 1 µM, LYS1 labelled site | 2.2
mouse ILK | probe labelling, KiNativ ADP probe | mouse brain lysate | 1 µM, kinase domain ISMADVkFSFQCPGR | 45.7
p38alpha (mouse) | probe labelling, inhibitor, KiNativ ActivX ATP probe | mouse brain lysate | 0.1 µM, peptide QELNkTIWEVPER | -18.3
MAP/microtubule affinity-regulating kinase 3 (Mark3, Mus musculus, UniProt Q03141) | KiNativ profiling | mouse brain lysate | 1 µM, LYS1 site, together with: ADP acyl phosphate probe | 0.3
MAP3K2 and MAP3K3 (mouse) | probe labelling, KiNativ, refers to: DIkGANILR peptide, LYS2 site | brain tissue lysate (mouse) | 0.1 µM, together with: ADP acyl-phosphate probe | 0.5

Sample 5 — host: mouse; medium: microsomes or S9; tested at: 2 µM; time: 0.5 h
SMILES | remaining compound [%]
CC(C)(C)OC(=O)N1CCCCC1CCOc1ccc2c(c1)CN(c1ccc(S(C)(=O)=O)cc1F)C2=O (stereo not drawn) | 34.9
COc1cc(=O)n2c(c1C(=O)Nc1ccc3c(c1)OCCO3)CCCC2 | 50.8
CC(CC(=O)c1ccc2ccccc2c1)n1nnc(-c2ccccc2)n1 (stereo not drawn) | 0.963
CC(=O)N(c1nc(COC(=O)/C=C/c2cnn(C)c2)cs1)c1c(C)cc(C)cc1C | 0.0758
CCN(CC)CCCNc1nc(-n2nc(C)cc2C)nc2sc3c(c12)CC(C)(C)OC3 | 4.73
COC(=O)c1nc(C2CC(C(C)(C)C)=NO2)cc(NC(C)=O)c1Cl (stereo not drawn) | 20.7

For quick reference, copied from above (sample 3):
SMILES | inhibition [%]
O=C(N[C@H]1CCCCC/C=C\C2C[C@@]2(C(=O)O)NC(=O)[C@@H]2C[C@@H](Oc3ccncc3)CN2C1=O)OC1CCCC1 (stereo partly drawn) | -13.8
O=C(NCc1ncc(C(F)(F)F)cc1Cl)c1ccc2c(c1)C1(CCS(=O)(=O)CC1)[C@H](C1CC1)N2S(=O)(=O)c1ccc(F)cc1 | -17.3
Cc1cc(NC(=O)c2cccc(S(F)(F)(F)(F)F)c2)cc(-n2ccn3nc(-c4cccnc4)cc23)c1 | 69.8
